Experimental data of several laboratories.
Protocols differ between the studies behind these lines. Several values in a cell are separate wells, animals, samples, runs or records. Numbers after ± are the reported error.
TDP1: Tyrosyl-DNA phosphodiesterase 1 (TDP1, Homo sapiens, UniProt Q9NUW8)
Chain of UniProt Q9NUW8 (whole entry, looked up): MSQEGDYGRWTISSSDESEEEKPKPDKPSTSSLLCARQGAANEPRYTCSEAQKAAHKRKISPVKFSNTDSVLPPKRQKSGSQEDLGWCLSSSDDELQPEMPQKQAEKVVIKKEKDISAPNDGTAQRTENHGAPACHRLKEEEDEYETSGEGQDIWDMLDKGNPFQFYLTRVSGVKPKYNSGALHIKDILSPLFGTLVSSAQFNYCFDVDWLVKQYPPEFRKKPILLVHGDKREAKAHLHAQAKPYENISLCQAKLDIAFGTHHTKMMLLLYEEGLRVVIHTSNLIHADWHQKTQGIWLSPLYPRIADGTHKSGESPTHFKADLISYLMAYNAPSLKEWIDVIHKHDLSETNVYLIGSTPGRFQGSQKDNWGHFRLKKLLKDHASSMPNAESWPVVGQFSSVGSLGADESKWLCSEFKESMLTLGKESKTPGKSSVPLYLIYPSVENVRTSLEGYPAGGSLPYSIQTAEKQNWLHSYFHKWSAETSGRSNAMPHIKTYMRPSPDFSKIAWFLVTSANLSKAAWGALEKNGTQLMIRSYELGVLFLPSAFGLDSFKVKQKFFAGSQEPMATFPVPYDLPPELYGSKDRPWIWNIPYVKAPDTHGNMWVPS

O=C(Oc1cccccc1=O)c1cccc(Cl)c1
CC50 (HepDES19; cell growth or viability, MTS; 72 h): 96.5 µM

N=C(N)NCCC[C@@H](NC(=O)[C@H](Cc1ccccc1)NC(=O)[C@H](Cc1ccccc1)NC(=O)[C@@H](CCCNC(=N)N)NC(=O)CCCC[C@@H]1SC[C@@H]2NC(=O)N[C@@H]21)C(N)=O
cytotoxicity (MDBK; 100 µM, 10% serum): not toxic

CCCCCCCCCC(=O)Oc1c(C)c(OC)c2c(/C=C/c3ccccc3)c(CCCCCCCC)c(=O)oc2c1C
IC50 (normal human liver cell line; cytotoxicity, SRB; 72 h): > 50 µM

COc1ccc2ncc(F)c(C[C@H](O)[C@H]3OC[C@H](NCc4ccc(C)cc4)CO3)c2n1
IC50 (HepG2; cytotoxicity; 24 h): 67.9 µg/mL

COc1cc(N2CCN(C(=O)C3CCCN3)CC2)ccc1Nc1ncc(Cl)c(Nc2ccccc2P(C)(C)=O)n1 (centres unmarked)
viability (NCI-H3122; cell growth or viability, CCK-8; 2.5 nM, 48 h): 98% and 92%

N=C(N)NCCC[C@@H]1NC(=O)[C@H](CCCNC(=N)N)NC(=O)[C@H](CCCNC(=N)N)NC(=O)[C@@H](C(c2ccccc2)c2ccccc2)NC(=O)[C@H](Cc2c[nH]c3ccccc23)NC(=O)[C@@H](C(c2ccccc2)c2ccccc2)NC(=O)[C@H](CCCNC(=N)N)NC1=O
HC50 (human red blood cells; haemolysis; 2 h, 37 °C): 255 µg/mL

COC1C=COC2(C)Oc3c(C)c(O)c4c(c3C2=O)C2=NC3(CCN(CC(C)C)CC3)NC2=C(NC(=O)C(C)=CC=CC(C)C(O)C(C)C(O)C(C)C(OC(=O)Nc2cccnn2)C1C)C4=O (centres unmarked)
intracellular/extracellular ratio (THP-1 derived macrophages; baseline: intracellular over extracellular): 23

CSc1nc(C=NOCc2ccc(-c3nc4cc(-c5ccccc5)ccn4c3Nc3ccc(C(=O)O)cc3)cc2)ccc1C#N (mixture of isomers)
inhibition (TDP1; enzyme activity, inhibitor; 100 µM, unpurified compound): 35.7%

Cc1cc(O)c(=O)c(O)cc1S(=O)(=O)c1ccccc1
CC50 (HepDES19; cell growth or viability, MTS; 72 h): 39.5 µM

COC1C=COC2(C)Oc3c(C)c(O)c4c(c3C2=O)C2=NC3(CCN(CC(C)C)CC3)NC2=C(NC(=O)C(C)=CC=CC(C)C(O)C(C)C(O)C(C)C(OC(=O)Nc2cscn2)C1C)C4=O (centres unmarked)
intracellular/extracellular ratio (THP-1 derived macrophages; 30 min; baseline: intracellular over extracellular): 92.5

COc1c(C)c(OCc2ccccc2)c(C)c(OCc2ccccc2)c1C(=O)/C=C/c1ccccc1
IC50 (normal human liver cell line; cytotoxicity, SRB; 72 h): > 50 µM

NC1=C(Cl)C(=O)c2ccccc2C1=O
IC50 (MRC-5; cytotoxicity, MTT; 48 h, 10% FBS): 18.5 ± 0.7 µM

O=c1c(O)ccc(-c2ccc(-c3ccccc3)cc2)cc1O
CC50 (HepDES19; cell growth or viability, MTS; 72 h): 20.5 µM

c1cc2nc(c1)-c1cccc(n1)CCCc1ccc(cc1)OCCCCCCOc1ccc(cc1)CCC2
viability (HepG2; cell growth or viability, MTT; 12.5 µM, 24 h): 96.3%

Cc1cc(O)c(O)c(=O)c(O)c1
CC50 (HepDES19; cell growth or viability, MTS; 72 h): 10.1 µM

O=CCNCCOn1c(=O)n(OCCNCCO)c(=O)n(OCCNCCOn2c(=O)n(OCCNCCO)c(=O)n(OCCNCCO)c2=O)c1=O
viability (HUVEC; cell growth or viability, MTT; 200 µg/mL, 72 h): 8.8%

Cc1cc(O)c(=O)c(O)cc1-c1ccccc1
CC50 (HepDES19; cell growth or viability, MTS; 72 h): 47 µM

Cc1nn2c(C(F)(F)F)ccnc2c1C=NOCc1ccc(-c2nc3cc(-c4ccccc4)ccn3c2Nc2ccc(C(=O)O)cc2)cc1 (mixture of isomers)
inhibition (TDP1; enzyme activity, inhibitor; 100 µM, unpurified compound): 62.6%

Cc1cc(O)c(=O)c(O)cc1C(=O)C1CC1
CC50 (HepDES19; cell growth or viability, MTS; 72 h): 72.6 µM

COc1ccccc1NC(=O)OC1C(C)C(OC)C=COC2(C)Oc3c(C)c(O)c4c(c3C2=O)C2=NC3(CCN(CC(C)C)CC3)NC2=C(NC(=O)C(C)=CC=CC(C)C(O)C(C)C(O)C1C)C4=O (centres unmarked)
intracellular/extracellular ratio (THP-1 derived macrophages; 30 min): 12.9

Excerpt of the above:
N=C(N)NCCC[C@@H](NC(=O)[C@H](Cc1ccccc1)NC(=O)[C@H](Cc1ccccc1)NC(=O)[C@@H](CCCNC(=N)N)NC(=O)CCCC[C@@H]1SC[C@@H]2NC(=O)N[C@@H]21)C(N)=O
cytotoxicity (MDBK; 100 µM, 10% serum): not toxic
